Assay results of several laboratories.
Lines come from different studies, so protocols differ. ± marks the error that the study gave.
OPRM1: Mu-type opioid receptor (OPRM1, Homo sapiens, UniProt P35372)

By UniProt entry, the sequences of proteins in these tests, tags left out.
UniProt P35372, whole entry: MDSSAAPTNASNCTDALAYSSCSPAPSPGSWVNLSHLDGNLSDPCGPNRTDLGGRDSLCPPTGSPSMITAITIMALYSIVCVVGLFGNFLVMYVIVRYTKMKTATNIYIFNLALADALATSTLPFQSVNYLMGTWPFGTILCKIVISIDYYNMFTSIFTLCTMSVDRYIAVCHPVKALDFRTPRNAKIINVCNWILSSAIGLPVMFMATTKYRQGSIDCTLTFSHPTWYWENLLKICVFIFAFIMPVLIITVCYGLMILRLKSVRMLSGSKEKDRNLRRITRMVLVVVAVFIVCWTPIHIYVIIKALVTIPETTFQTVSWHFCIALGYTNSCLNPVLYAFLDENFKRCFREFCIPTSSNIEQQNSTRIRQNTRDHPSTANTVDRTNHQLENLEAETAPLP
UniProt Q8TAS1, whole entry: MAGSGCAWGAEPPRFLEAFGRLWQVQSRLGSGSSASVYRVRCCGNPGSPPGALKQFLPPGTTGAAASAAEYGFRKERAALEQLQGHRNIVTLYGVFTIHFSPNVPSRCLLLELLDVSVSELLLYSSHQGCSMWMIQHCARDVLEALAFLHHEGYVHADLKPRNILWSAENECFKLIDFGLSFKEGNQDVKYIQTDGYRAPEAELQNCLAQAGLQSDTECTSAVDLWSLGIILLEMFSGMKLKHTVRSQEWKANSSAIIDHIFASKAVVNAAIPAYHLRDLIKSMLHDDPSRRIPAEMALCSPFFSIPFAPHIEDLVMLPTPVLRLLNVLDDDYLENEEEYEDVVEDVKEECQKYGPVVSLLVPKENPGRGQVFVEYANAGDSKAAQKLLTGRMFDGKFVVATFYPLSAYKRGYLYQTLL

Compound | target | assay | system | setting | scale | measurement | value
CO[C@]12CC[C@@]3(C[C@@H]1[C@@](C)(O)C(C)(C)C)[C@H]1Cc4c(Cl)cc(O)c5c4[C@@]3(CCN1CC1CC1)[C@H]2O5 | OPRM1 | radioligand binding | CHO | added: [3H]DAMGO |  | Ki | 13.2 ± 0.97 nM
CO[C@]12C=C[C@@]3(C[C@@H]1[C@H](O)c1ccccc1)[C@H]1Cc4ccc(O)c5c4[C@@]3(CCN1CC1CC1)[C@H]2O5 | OPRM1 | binding, radioligand displacement | CHO | added: [3H]DAMGO |  | Ki | 4 ± 0.63 nM
CO[C@]12CC[C@@]3(C[C@@H]1[C@@](C)(O)c1ccc(C(C)(C)C)cc1)[C@H]1Cc4ccc(O)c5c4[C@@]3(CCN1CC1CC1)[C@H]2O5 | OPRM1 | radioligand binding | CHO | added: [3H]DAMGO |  | Ki | 5.56 ± 1.3 nM
CCN1CCN(Cc2ccc(NC(=O)c3ccc(C)c(/C=C/c4cnc5[nH]ccc5c4OC)c3)cc2C(F)(F)F)CC1 | Serine/threonine-protein kinase Kist (UHMK1, Homo sapiens, UniProt Q8TAS1) | kinase-CDC37 interaction, inhibitor | human cells | 5 µM | baseline: vehicle | log2 fold change | 0.139
COCO[C@H]1C[C@@H](C(=O)OC)[C@]2(C)CC[C@H]3C(=O)O[C@H](c4ccoc4)C[C@]3(C)[C@H]2C1=O | OPRM1 | [3H]DAMGO displacement | CHO cells expressing OPRM1 |  | lower is stronger binding | Ki | 390 ± 20 nM
N=C(N)NCC(=O)NCC1(Cc2ccccc2)CCN(Cc2ccccc2)CC1 | OPRM1 | binding | HEK293 membranes | added: [3H]DAMGO |  | Ki | 201 ± 10 nM
CC[C@](O)([C@H]1C[C@@]23CC[C@]1(OC)[C@@H]1Oc4c(O)ccc5c4[C@@]12CCN(CC1CC1)[C@@H]3C5)C(C)(C)C | OPRM1 | G-protein activation, agonist |  |  | baseline: DAMGO | EC50 | 50.2 ± 6.6 nM
O=C1CC2CC(c3cccc(O)c3)(CCN2CCc2ccccc2)C1 (centres unmarked) | OPRM1 | binding | CHO cells expressing human MOR | added: [3H]DAMGO |  | Ki | 40 ± 2.8 nM
CO[C@]12CC[C@@]3(C[C@@H]1[C@@](C)(O)C(C)(C)C)[C@H]1Cc4cc(Br)c(O)c5c4[C@@]3(CCN1CC1CC1)[C@H]2O5 | OPRM1 | radioligand binding | CHO | added: [3H]DAMGO |  | Ki | 10.5 ± 3.86 nM
CC#C/C(=N\OC[C@H]1COCCN1)c1ccc2ncnc(Nc3ccc(OCc4cccc(F)c4)c(Cl)c3)c2c1 | Protein kinase C alpha type (PRKCA, Homo sapiens, UniProt P17252) | kinase activity |  | 10 µM |  | inhibition | 18.2%
N=C(N)NCC(=O)NCC1(Cc2cccc3ccccc23)CCN(Cc2ccccc2)CC1 | OPRM1 | binding | HEK293 membranes | added: [3H]DAMGO |  | Ki | 354 ± 90 nM
CO[C@]12CC[C@@]3(C[C@@H]1[C@](C)(O)c1ccccc1)[C@H]1Cc4ccc(O)c5c4[C@@]3(CCN1CC1CC1)[C@H]2O5 | OPRM1 | G-protein activation, antagonist |  | added: DAMGO |  | Kb | 0.47 nM
CN1CC[C@]2(c3cccc(O)c3)C[C@H]3CCCC[C@@H]3[C@H]1C2 (relative stereo) | OPRM1 | binding | CHO cells expressing human MOR | added: [3H]DAMGO |  | Ki | 0.9 ± 0.04 nM
CCCN1CCN(c2ccc3c(c2)C2CC3CCN2C(=O)OCc2ccccc2)CC1 (centres unmarked) | OPRM1 | binding, radioligand binding |  |  |  | Ki | 8800 nM

A few entries again:
Compound | target | assay | system | setting | scale | measurement | value
CCCN1CCN(c2ccc3c(c2)C2CC3CCN2C(=O)OCc2ccccc2)CC1 (centres unmarked) | OPRM1 | binding, radioligand binding |  |  |  | Ki | 8800 nM
